Measured values of several laboratories.
A part holds a random share of what one study measured. “And” joins repeats or separate records; there may be more than shown.
Sequence of UniProt P16234 (whole entry, looked up): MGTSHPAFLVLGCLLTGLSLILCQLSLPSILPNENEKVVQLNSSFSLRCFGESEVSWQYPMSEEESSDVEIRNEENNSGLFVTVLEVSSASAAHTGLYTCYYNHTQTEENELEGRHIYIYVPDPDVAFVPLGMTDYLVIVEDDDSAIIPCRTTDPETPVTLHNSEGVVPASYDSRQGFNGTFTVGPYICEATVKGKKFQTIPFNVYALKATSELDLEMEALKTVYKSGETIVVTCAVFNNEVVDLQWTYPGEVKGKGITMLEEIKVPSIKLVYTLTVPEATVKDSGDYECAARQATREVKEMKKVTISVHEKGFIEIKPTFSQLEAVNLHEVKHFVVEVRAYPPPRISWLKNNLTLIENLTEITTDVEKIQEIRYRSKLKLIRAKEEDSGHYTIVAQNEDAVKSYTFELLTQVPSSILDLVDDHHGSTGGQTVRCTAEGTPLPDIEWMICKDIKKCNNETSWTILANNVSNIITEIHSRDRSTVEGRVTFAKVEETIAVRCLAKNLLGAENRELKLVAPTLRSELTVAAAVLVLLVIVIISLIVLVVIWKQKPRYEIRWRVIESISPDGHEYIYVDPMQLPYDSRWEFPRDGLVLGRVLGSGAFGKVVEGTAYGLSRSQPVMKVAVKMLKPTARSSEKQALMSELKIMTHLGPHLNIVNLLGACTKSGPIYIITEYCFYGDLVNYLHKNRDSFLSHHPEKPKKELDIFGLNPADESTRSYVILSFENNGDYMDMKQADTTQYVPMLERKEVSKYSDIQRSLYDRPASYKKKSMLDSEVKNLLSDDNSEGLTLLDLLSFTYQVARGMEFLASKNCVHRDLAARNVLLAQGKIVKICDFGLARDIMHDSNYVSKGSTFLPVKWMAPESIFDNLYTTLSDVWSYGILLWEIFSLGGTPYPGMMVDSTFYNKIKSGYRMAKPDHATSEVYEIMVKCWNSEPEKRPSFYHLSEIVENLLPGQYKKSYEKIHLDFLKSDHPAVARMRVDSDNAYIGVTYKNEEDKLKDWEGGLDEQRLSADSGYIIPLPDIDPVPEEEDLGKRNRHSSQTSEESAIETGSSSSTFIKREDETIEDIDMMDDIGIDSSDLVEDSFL
Sequence of UniProt Q8N568 (whole entry, looked up): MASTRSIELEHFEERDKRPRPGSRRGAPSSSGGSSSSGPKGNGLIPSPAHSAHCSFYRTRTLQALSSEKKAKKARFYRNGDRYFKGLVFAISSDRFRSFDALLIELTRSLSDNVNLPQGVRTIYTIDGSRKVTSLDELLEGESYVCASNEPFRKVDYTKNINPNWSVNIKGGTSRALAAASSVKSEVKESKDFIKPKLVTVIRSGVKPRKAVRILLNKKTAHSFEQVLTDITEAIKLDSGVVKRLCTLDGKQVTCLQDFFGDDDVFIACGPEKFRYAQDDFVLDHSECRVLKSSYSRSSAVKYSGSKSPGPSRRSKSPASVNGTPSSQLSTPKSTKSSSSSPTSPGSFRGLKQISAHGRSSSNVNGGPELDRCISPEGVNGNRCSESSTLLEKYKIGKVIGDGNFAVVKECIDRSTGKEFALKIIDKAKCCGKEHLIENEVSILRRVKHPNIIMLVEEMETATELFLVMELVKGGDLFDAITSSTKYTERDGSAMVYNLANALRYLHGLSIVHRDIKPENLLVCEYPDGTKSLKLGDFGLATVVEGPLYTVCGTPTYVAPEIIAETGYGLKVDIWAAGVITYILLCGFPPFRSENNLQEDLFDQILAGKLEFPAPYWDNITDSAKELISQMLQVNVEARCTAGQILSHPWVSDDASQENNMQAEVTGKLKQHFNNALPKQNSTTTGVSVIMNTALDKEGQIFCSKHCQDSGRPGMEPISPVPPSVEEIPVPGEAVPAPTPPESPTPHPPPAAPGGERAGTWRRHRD
Sequence of UniProt P42336 (whole entry, looked up): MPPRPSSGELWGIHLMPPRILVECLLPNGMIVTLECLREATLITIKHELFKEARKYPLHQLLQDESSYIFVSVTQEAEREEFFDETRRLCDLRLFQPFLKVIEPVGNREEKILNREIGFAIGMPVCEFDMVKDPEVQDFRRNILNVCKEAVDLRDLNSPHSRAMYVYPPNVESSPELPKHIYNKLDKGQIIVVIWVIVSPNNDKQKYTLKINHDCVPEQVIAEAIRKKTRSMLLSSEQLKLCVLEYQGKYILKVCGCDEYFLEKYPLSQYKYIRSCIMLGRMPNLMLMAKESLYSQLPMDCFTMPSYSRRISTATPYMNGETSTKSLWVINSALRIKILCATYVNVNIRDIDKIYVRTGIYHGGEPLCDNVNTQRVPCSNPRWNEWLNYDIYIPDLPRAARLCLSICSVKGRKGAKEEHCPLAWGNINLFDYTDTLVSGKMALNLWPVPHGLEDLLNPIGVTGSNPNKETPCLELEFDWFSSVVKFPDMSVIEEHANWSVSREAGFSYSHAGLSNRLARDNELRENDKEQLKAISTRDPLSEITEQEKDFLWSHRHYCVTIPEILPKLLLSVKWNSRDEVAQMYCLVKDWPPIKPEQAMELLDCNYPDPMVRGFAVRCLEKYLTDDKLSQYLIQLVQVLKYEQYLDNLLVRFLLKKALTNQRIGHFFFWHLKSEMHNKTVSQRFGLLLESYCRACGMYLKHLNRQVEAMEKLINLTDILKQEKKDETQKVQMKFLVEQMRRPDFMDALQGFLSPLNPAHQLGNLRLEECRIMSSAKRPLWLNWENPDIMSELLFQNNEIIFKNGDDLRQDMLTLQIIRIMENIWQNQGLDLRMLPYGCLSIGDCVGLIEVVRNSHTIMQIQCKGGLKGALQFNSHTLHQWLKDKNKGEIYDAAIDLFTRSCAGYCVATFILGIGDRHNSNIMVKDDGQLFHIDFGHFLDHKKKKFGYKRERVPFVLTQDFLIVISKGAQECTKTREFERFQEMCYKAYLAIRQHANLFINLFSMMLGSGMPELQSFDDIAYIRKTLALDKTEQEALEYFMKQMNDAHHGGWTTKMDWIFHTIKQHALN

Series 1
Target: E3 ubiquitin-protein ligase NEDD4 (Homo sapiens, UniProt P46934)
Read-out: enzyme activity
Action: inhibitor
Method: TR-FRET
Tested at: 11 µM
Target sequence (P46934 938-1319, limits assumed): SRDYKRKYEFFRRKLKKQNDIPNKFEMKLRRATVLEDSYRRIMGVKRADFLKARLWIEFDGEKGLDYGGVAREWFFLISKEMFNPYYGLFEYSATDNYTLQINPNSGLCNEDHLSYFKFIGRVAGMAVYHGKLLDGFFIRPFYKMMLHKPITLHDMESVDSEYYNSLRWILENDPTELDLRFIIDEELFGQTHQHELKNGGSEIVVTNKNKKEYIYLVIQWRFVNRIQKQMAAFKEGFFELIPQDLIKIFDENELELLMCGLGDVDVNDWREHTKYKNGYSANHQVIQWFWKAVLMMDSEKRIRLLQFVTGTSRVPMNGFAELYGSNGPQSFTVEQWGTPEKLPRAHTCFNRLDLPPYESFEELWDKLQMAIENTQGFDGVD
SMILES | inhibition [%]
CCOC(=O)/C=C/CNCCCN1c2ccccc2CCc2ccc(Cl)cc21 | 83.4
CN(C)C/C=C/C(=O)NCCCN1c2ccccc2CCc2ccc(Cl)cc21 | 16.2
COC(=O)CCCNCCCN1c2ccccc2CCc2ccc(Cl)cc21.COC(=O)CCCNCCCN1c2ccccc2CCc2ccc(Cl)cc21.O=C(O)/C=C/C(=O)O | 15.3
CNC(=O)/C=C/CNCCCN1c2ccccc2CCc2ccc(Cl)cc21.Cl | 19.6
CN(C)C(=O)/C=C/CNCCCN1c2ccccc2CCc2ccc(Cl)cc21.Cl | 14.7

Series 2
Structure (SMILES): C[C@@H]1CN(c2ccc(-c3cc(C(=O)NCCOCCOCCOCCOCCNC(=O)Cn4cc(-c5[nH]cc(C(=O)N[C@@H](CC(N)=O)c6ccc(F)c(Cl)c6)c5-c5ccc(Cl)cc5F)cn4)ccc3F)cc2NC(=O)c2c[nH]c(=O)cc2C(F)(F)F)C[C@H](C)N1C
Read-out: thermal unfolding
Method: differential scanning fluorimetry
Tested at: 5.5 µM
Direction: higher = more unfolded
WDR5: WD repeat-containing protein 5 (WDR5, Homo sapiens, UniProt P61964)
DCAF1: DDB1- and CUL4-associated factor 1 (DCAF1, Homo sapiens, UniProt Q9Y4B6)
Sequence of UniProt Q9Y4B6 (whole entry, looked up): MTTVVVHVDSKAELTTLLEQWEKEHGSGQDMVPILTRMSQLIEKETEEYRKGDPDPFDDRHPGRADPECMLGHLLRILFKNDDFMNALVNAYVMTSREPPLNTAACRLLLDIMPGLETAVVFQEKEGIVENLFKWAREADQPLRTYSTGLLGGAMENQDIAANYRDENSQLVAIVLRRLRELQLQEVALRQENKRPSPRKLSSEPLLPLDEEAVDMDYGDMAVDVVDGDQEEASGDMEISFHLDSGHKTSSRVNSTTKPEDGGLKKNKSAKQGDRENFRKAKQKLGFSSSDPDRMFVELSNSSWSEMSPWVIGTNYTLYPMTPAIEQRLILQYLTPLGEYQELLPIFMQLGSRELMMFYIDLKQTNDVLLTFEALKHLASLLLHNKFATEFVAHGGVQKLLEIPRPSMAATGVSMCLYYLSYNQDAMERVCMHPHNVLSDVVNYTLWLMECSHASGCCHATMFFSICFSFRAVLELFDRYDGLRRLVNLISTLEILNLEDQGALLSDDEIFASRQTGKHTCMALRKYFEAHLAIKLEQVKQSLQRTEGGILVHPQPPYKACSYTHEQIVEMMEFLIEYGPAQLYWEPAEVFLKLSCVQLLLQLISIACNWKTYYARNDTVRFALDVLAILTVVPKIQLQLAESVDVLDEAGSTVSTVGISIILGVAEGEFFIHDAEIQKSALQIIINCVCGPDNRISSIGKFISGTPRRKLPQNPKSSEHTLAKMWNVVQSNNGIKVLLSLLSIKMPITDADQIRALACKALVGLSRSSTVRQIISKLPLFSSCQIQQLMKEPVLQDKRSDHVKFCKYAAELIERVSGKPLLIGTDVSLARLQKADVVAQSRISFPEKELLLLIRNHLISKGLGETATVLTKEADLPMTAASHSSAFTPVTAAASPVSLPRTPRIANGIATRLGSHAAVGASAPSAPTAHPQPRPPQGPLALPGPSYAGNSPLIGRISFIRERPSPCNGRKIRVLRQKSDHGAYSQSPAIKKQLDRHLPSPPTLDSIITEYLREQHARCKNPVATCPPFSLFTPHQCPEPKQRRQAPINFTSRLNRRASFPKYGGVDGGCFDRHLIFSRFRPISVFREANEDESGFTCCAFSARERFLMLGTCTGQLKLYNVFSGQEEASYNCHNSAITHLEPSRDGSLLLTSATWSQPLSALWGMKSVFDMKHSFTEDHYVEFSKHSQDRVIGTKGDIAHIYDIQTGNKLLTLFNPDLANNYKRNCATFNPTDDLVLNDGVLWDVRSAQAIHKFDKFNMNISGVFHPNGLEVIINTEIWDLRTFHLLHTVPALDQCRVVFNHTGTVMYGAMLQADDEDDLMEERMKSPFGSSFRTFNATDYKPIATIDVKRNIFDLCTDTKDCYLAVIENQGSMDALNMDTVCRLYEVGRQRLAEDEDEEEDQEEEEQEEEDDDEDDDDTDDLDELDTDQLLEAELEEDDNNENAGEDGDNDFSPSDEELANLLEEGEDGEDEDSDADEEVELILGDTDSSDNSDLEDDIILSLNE
target | setting | SYPRO Orange fluorescence [a.u.]
WDR5 | 90.61 °C | 42800
DCAF1 | 58.21 °C | 29700
WDR5 | 61.41 °C | 9590
WDR5 | 70.21 °C | 6890
WDR5 | 31.6 °C | 14700
WDR5 | 91.41 °C | 42000
DCAF1 | 43.6 °C | 11600
DCAF1 | 49 °C | 13900
DCAF1 | 80.21 °C | 44000
DCAF1 | 67.61 °C | 56400
DCAF1 | 33.6 °C | 8500

Series 3
SMILES: COCC1CC2C(CCC3C(O)CCC32)c2ccc(O)cc21 (centres unmarked)
cell line | assay | setting | scale | mRNA level ratio
PANC-1 | microarray, refers to: CCL11 | 100 µM | baseline: untreated | 345
PANC-1 | microarray, refers to: MCM6 | 100 µM | baseline: untreated | 1.15
A549 | microarray, refers to: RFC3 | 25 µM | baseline: untreated | 1.3
PANC-1 | microarray, refers to: CDC25B | 25 µM | baseline: untreated | 0.94
A549 | microarray, refers to: AURKA | 100 µM | baseline: untreated | 0.945
PANC-1 | DNA microarray, refers to: GINS1 | 25 µM | baseline: untreated cells | 1.39
PANC-1 | DNA microarray, refers to: C6 | 100 µM | baseline: untreated cells | 97.3
PANC-1 | DNA microarray, refers to: MCM7 | 25 µM | baseline: untreated cells | 1.11
A549 | microarray, refers to: AURKA | 25 µM | baseline: untreated | 1.1
A549 | DNA microarray, refers to: ACTB | 100 µM | baseline: untreated cells | 0.808 and 0.823 and 0.811 and 0.825 and 0.849
A549 | DNA microarray, refers to: ACTB | 25 µM | baseline: untreated cells | 1.06 and 1.07 and 1.01 and 1.04
A549 | microarray, refers to: OLIG2 | 25 µM | baseline: untreated | 1

Series 4
SMILES: CN(C1COC1)C(C)(C)/C=C(\C#N)C(=O)N1CCC[C@H]1Cn1nc(-c2ccc(Oc3ccccc3)cc2F)c2c(N)ncnc21
Read-out: kinase activity
TXK: Tyrosine-protein kinase TXK (TXK, Homo sapiens, UniProt P42681)
Sequence of UniProt P42681 (whole entry, looked up): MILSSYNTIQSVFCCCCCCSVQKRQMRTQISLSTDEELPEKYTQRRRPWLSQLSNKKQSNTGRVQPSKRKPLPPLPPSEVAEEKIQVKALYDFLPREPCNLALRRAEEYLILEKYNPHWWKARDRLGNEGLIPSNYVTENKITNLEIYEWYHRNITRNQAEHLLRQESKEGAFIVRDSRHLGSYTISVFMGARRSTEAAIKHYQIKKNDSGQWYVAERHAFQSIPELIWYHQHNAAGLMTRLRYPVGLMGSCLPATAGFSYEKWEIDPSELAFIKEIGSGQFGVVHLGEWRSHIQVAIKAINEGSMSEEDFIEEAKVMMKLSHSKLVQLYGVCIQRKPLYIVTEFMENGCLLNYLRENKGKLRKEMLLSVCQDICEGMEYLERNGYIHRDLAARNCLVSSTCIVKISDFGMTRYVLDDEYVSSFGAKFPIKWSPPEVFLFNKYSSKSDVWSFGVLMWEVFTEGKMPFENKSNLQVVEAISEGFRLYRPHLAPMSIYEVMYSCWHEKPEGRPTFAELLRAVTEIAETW
target | setting | inhibition [%]
DCLK2 (Homo sapiens, UniProt Q8N568) | 1 µM | 1
HIPK3 (Homo sapiens, UniProt Q9H422) | 0.1 µM | 4
CAMK1D (Homo sapiens, UniProt Q8IU85) | 1 µM | 4
HASPIN (Homo sapiens, UniProt Q8TF76) | 1 µM | -1
PDGFRA (Homo sapiens, UniProt P16234) | 0.1 µM | -9
Cyclin-dependent kinase 4, with cyclin D (CDK4, Homo sapiens, UniProt P11802) | 1 µM | 0
DYRK2 (Homo sapiens, UniProt Q92630) | 1 µM | -2
DYRK4 (Homo sapiens, UniProt Q9NR20) | 0.1 µM | 4
NUAK1 (Homo sapiens, UniProt O60285) | 0.1 µM | 3
PIK3CA (Homo sapiens, UniProt P42336) | 0.1 µM | -5
TXK | 0.1 µM | 52
CDK5 (Homo sapiens, UniProt Q00535) | 0.1 µM | 1
CSNK1G2 (Homo sapiens, UniProt P78368) | 0.1 µM | 6
BLK (Homo sapiens, UniProt P51451) | 1 µM | 91
CDK2 (Homo sapiens, UniProt P24941) | 1 µM | 5
TXK | 1 µM | 95
PRKCI (Homo sapiens, UniProt P41743) | 1 µM | -12
LRRK2 (Homo sapiens, UniProt Q5S007, G2019S) | 1 µM | 1
CSK (Homo sapiens, UniProt P41240) | 1 µM | 33

Excerpt of the above (series 4):
target | setting | inhibition [%]
PDGFRA (Homo sapiens, UniProt P16234) | 0.1 µM | -9
BLK (Homo sapiens, UniProt P51451) | 1 µM | 91
Cyclin-dependent kinase 4, with cyclin D (CDK4, Homo sapiens, UniProt P11802) | 1 µM | 0
LRRK2 (Homo sapiens, UniProt Q5S007, G2019S) | 1 µM | 1
HIPK3 (Homo sapiens, UniProt Q9H422) | 0.1 µM | 4
